# Results pooled from the literature.
# Parts stem from different laboratories: compare values within a part only.

# Sample 1 — technique: universal PBM; molecule type: double-stranded DNA, one strand shown; medium: in vitro; concentration: not given; direction: higher = stronger binding
# Target: Sal-like protein 4, full length isoform B (SALL4, Homo sapiens, UniProt Q9UJQ4-2, residues 1-616)
# Setting: 8-mer, flanks averaged, mean of replicates
Sequence,E-score
GCGCCCAA,-0.18
CTTTGGGC,-0.159
CAGTTCGA,-0.0237
CGCACAGC,-0.295
AGGCACTA,-0.144
AGAGTCCG,-0.108
GAAGTCCA,-0.0669
GAAACGCC,-0.177
AACTAAAG,0.223
GCGGAAAA,0.172
CGGGAGAG,-0.264
ATCATAGC,0.153
CTCGAGGA,-0.194
CAACATCC,-0.0868
ATAACCTG,0.247
AAAAATCG,0.19
ATAGCGAG,0.0131
AATGTCGC,-0.0608
CGGCTAAC,-0.124
CCGCCACA,-0.273
ATCTCAGG,-0.149
ACGGTACT,-0.0435
GCTTGTGA,-0.116

# Sample 2 — technique: protein binding microarray; molecule type: double-stranded DNA, one strand shown; medium: in vitro; concentration: not given; baseline: not given; direction: higher = stronger binding
# Target: Histone acetyltransferase KAT6A, both winged helices, GST fusion (KAT6A, Homo sapiens, UniProt Q92794, residues 1-181)
# Setting: 8-mer, flanks averaged, mean of 2 arrays, mostly near background
# Construct (chain): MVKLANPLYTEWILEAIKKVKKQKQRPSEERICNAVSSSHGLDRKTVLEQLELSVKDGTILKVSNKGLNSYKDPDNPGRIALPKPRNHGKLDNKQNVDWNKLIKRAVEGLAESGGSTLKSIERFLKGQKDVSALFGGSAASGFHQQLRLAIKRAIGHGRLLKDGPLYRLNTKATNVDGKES
Sequence,E-score
AAGCCAAA,-0.0987
ATTATGAA,-0.0348
CACCTTGA,-0.122
AAGCCTCT,-0.357
GCTAAATA,-0.00211
GACAATTA,-0.0984
GTAAAGAA,-0.0518
ACCACTCG,-0.0545
CGTGCTCC,-0.0462
GCCTTAAA,0.0508
CATGTCAA,-0.0762
AGGAGTGC,-0.0821
AATTGGCA,-0.135
AGACCTGA,-0.182
GGCAGGAC,-0.00651
AGACAGCC,-0.06
CCAATCGG,-0.11
CCTGCCGA,-0.0398
ACGCAGGG,-0.0206
GAGCGTGA,0.204

# Sample 3 — technique: RNA Bind-n-Seq; molecule type: RNA; medium: in vitro; concentration: not given; baseline: input RNA pool; direction: higher = stronger binding
# Target: RING finger protein unkempt homolog, zinc fingers 1-6, GST-SBP tag (UNK, Homo sapiens, UniProt Q9C0B0, residues 30-357)
# Setting: RNA with constant flanks, human-mouse chimeric sites, ends assumed
# All sequences stand within: GGGAGUUCUACAGUCCGACGAUC … CAACAGAGGAUUGAGCAUCA
# Construct (chain): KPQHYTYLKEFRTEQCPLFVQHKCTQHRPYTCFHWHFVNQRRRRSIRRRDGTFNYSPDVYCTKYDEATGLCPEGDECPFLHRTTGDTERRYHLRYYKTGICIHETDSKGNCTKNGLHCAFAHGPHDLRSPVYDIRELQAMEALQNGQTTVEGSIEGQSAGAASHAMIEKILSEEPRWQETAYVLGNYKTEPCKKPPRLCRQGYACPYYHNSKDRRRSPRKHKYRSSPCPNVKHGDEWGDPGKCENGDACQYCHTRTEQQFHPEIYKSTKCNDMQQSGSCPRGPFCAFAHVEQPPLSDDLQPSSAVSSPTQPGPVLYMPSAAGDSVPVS
Sequence,bound/input enrichment [ratio]
GUAGCUGGGACUACAGAAAUGCUGGUAAUUUCAGUCACUUGCUGAUGACUUCUGAUGUCCCAGCAAAUAAUGCCACACACUGCAAUAGAGAAGAUACUUCUGAGGACCCACGUCUAAGGU,0.591
UGGCGCCUGCGCUCCCCACUCGUGUUUUUAAGUGUAUUUUUAUAAGAUACAUGUAUUUACAAUUGAGCUUUUGUUACAUAAUGCUGAAAACAUCUCUGAGAUUAUGAAAAAAUGUUAAAU,0.159
GGUGGGGUGGUCAUUGCCGUUUGAGCUGCUGAUUUUCAUGAGUCGCCCAUUCAGAACUCGUGUAGGGUUGACAAUGUGGGGGGGUGGGGGAUCCAGCUUAUUCUUUUUCCCCAGCCCCCA,0.354
UGACAAGGGCACUGCAGAGCCAUGCCUUUCCUUGACAUACAGAAAAAGUUCGGCCUUAGCCUGGACCGGCACUUUAUGUUCCUAAGCGGUGAACAGCCCUAUAAGAACGCCGCUCGGUGC,0.102
GAUAAGAAAAGCUUGUUGGAGACCCGAUUGCAUGUCACUGGUAGAGAACUGAGGUCCCAAAUAGCUGAAACUUUCGGAUUUCAAGAAAAUUACAUCAAGAUCGUAAUAAAUAAGAAACAG,0.46
GCGGCAGAAUCAUGGAGGACAUAAUGCAGCUCCCCAAAGCGCGCGUCAACGCCGGCAUGUUACCACAGUAUAUCGACCGGCCCGUGUGCUUCGUGGGGAGGCUGGAAAAGAUUCAUCCCA,0.0683
UUACCCGAGAACGAGGAUGAAUUGGAGAGCACCAACAGGCGCUACACCAAGAGGGACUGUAGCACUUUCCUCAGAACUAGUGAGACGGGCAUCGUGGACCAGGUCAUGGUCACUCUCAAC,0.212
CACGUGUCUGCAGUACUUGAUGUGGACUACUCUCCCACUGGGAAGGAGUUUGUGUCUGCUAGUUUCGAUAAGUCUAUUAGAAUCUUUCCUGUGGACAAGAGCCGAAGCAGGGAAGUGUAU,1.86
AAAGUGAUGACUAUGUUUGUCCAACGACAGGUAUUUUCGGAGAGCAAAGAUGAGAUUGCUUUAGUCCUGUUUGGUACAGAUGGCACUGAUAAUGCCCUUGCUGGCAAGGACCAGUAUCAG,0.126
GAGCCCAGCCGGCAGUUUGUAAAGGACUCAAUUCGGCUGGUUAAAAGAUGCACCAAACCCGACAGAAAAGAAUUCCAGAAGAUUGCCAUGGCAACAGCAAUAGGAUUUGCUAUCAUGGGA,0.117
AACAGAUUUCUCAAGCACAUUCCAAGCGAGAAUGCUGGGGUGAUCAUUGUUGCCCAUGUGCCUUCUGACUGAGCUUUAAUGCUGUUCAUCCUUGAUGCUUUCCUUCACUCCAGAAUUGUU,0.13

# Sample 4 — technique: RNA Bind-n-Seq; molecule type: RNA; medium: in vitro; concentration: 365 nM; baseline: no-protein control; direction: higher = stronger binding
# Target: RNA binding protein fox-1 homolog 2, RRM domain, GST-SBP tag (RBFOX2, Homo sapiens, UniProt O43251-10, residues 100-194)
# Setting: natural RNA segment, single round, ends assumed
# All sequences stand within: GGGAGUUCUACAGUCCGACGAUC … UGGAAUUCUCGGGUGCCAA
# Construct (chain): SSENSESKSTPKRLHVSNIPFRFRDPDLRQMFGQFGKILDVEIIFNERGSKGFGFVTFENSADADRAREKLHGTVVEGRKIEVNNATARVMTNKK
Sequence,RBNS enrichment (R)
UGUAUUGUAUGGUAGCUCUUUGAGCCUUGGUUGGUCGACUCUAGUGUAAGUUUAAUUAAUUGUAUAUUGUGUGAAUAGAACAACUUAAAUAUUACAGCAAUACACUGGGC,0.8
CCAAAAGUCUUCCAUGAAAUGUAGCAGAGUUUCUGUCUGCCCUGCAUUACCUGCCAGCGAGUCAAGGUAGGGGAUCCAGCAAACGGUUUUGGGAAUUCAGACUGUGGAAA,0.776
CUCACUGGGACUGGAGACCUCGUUCCUUCACCCCGCGUGUCGCCAGCCUCUGGGUCCAGCCAGAGCCCCUGGCUUCUCCGCCACCCACACCCUUCCCACCCUGCUGUGGG,0.468
UUCUAAAUUGUAGGAGCAGGAUGGAAAUACUUUGCUGCCCUUGCCAUCUUUUAGGAUGGGCCCCCAGGAGACUGAGGUCUUCCUGGGCCCUCAUUGCUGCUUAUCGUACC,0.223
UGGGAGUUAGCAACAUUUGAGGAUGUUGUAGGUACUUUAUUACAUUUUUUUGUAGUUUAAAGAGCUUUAUUAAUGCAAUAAAUUAACUUUGUACAUUUUUAUAUUAAAAA,0.616
CAGGUCUUGGCCCUAGAGGAUUGAGAUGUUUUUCUAAAUCUUAGAACUAUUUUUGGAUAAAUUAUAUAUUUUCCUUCCUAGUAGAAGUGUUACUGCCUGUAACUAGCUCA,0.478
AGGUAAUCGCCCAACUUGGCUUUGGGGAAAGUCAGAGUCUGACAGAGCUGAGCAUUGUCUCAUCCAGAGCUAAGGACAUGAGUCCUCUAUUUCAAGUAGGGAAACCCAGG,0.292
AGUUUCAGAAUUGCUGGGAAAGUUACCCCACUGGUGGGUGAGGAUCUAUCCUCAACCUACAUCCAGAUCCUAUGUGCUGCUUGCACAGAGGCCUUUGGCUUUUGACCCAG,0.258
CAAGCCCUCCUUCUCACAUAGCAACAGCAUCCACCUACAGAAGCAGCCCCUCAGUGUAGCCACUUCACCACCCUGUGCACCCUAAGUGACUUUUGAUUCCUUGAACCUUU,1.21
UAAUCUUGUGGCUGCUUUCUUUUUAUUUCCCACUUUCUCUGUUUUAUAACAGAACCUUCUGUAUAGGUUCUGGCAAUCAAGAGAUGUAUAAUAAAACAUAGCUUACGUGA,0.457
CACGCCCCAGCCACUUUGCUCCCUCUCACCUCUGGGAAGUGCAAAUACUCUUGGUUGACAUCCCCUUCCUCAGCCCUCCCAGCCUACUCCCCAUCCCAGCUUUUAGAGGA,0.564
AUGGGUGAUGUGUGAUCUACCAGUGGCUGGGUUCACCCAUCAGUAAUCAGAGCAAGACAAAUGAGAGCAAAGCCCCAUGUGACUCCUCCUACUGCUGUGUUGUUUCAAAC,0.577

# A few entries again (sample 1):
Sequence,E-score
GAAACGCC,-0.177
AGGCACTA,-0.144
CTCGAGGA,-0.194
CGGCTAAC,-0.124
GCTTGTGA,-0.116
CAGTTCGA,-0.0237
AAAAATCG,0.19
CAACATCC,-0.0868
GAAGTCCA,-0.0669
CGGGAGAG,-0.264
